Results gathered from unrelated publications.
A part holds a random share of what one study measured.

Study 1
Target: RING finger protein unkempt homolog, zinc fingers 1-6, GST-SBP tag (UNK, Homo sapiens, UniProt Q9C0B0, residues 30-357)
Method: RNA Bind-n-Seq
Form: RNA
Sample: in vitro
Concentration: not given
Notes: RNA with constant flanks, human-mouse chimeric sites, ends assumed
Baseline: input RNA pool
Direction: higher = stronger binding
Constant ends, left off below: GGGAGUUCUACAGUCCGACGAUC … CAACAGAGGAUUGAGCAUCA
Target sequence (chain): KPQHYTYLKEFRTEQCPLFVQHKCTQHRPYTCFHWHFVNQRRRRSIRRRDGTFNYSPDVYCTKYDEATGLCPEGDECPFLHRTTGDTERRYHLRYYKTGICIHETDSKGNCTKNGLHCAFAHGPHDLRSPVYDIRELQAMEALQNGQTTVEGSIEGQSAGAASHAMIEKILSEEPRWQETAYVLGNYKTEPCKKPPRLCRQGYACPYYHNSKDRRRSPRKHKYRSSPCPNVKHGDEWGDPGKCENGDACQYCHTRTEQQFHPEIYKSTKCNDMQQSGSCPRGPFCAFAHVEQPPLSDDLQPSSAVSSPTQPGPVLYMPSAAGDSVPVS
| Strand | bound/input enrichment |
| --- | --- |
| UAAGUCCUGUGCCAGCACUUCGCUCAUAAAGUUUUAAAUUCUGGACCAAUAGUGUUUGUUUCCUGAUUAUUGUAUCCAAUACUUUAUCUAGUAUGUAACUCACUCUUACUGAUAAUAAAA | 1.45 ratio |
| GUGCCCUUCUCGCUGCUCCUGCGGGGCAGCUGGGAACCAUUCCGGGACUGGUACCCUGCACACAGCCGCCUCUUCGACCAGGCCUUCGGGGUGCCCCGGUUGCCCGAUGAGUGGUCGCAG | 0.0515 ratio |
| UUGGAAGGACCAGAGCCUAAUCAACUGAAACCAUUAGUCAUACAGGCUAUGCCCACCCUAAUAGAAUUAAUGAAAGACCCCAGUGUAGUUGUUCGAGACACAACAGCAUGGACUGUAGGC | 2.86 ratio |
| GCCACCAGAUCCCAGAAACAUGACCCUUGCUGCCUACAAAGAGAAGAUGAAGGAGCUCCCGCUGGUGUCUCUGUUCUGCUCCUGCUUCCUGGCCGAUCCCCUGAAUAAAUCAUCCUACAA | 0.411 ratio |
| UGUAACUCUUAUCUGUAAGGUUCCCCCCCCCUACUGUCAAAAAAUAUGCAUGUAUAGUAAUUAGGACUUCAUUCCUCCAUGUUUUCUUCCCUUAUCUUACUGUCAUUGUCCUAAAACCUU | 2.2 ratio |
| AGUGUGCAGGAAUUCAUGACCUUCACGAGUCAACUGAUUGUGGAACGCUCGGGGAAAGGCAGCAGAGCUUCUGUCAAAGAACAAGAGUAUCUUUGCCACGUCUACGUCCGGAGCGACAGU | 0.0825 ratio |
| CCCCAAUACCAUUUGCAGGUCUGGAACUGCACUCUCUUUUUUAAAAAAUAUGCAUAUAUUUUAGGGCUGUAGAUUUAUUUUCCUGGUUUUGUUUUUCAUUGCUGACUUUUGAGCACAGAA | 1.02 ratio |
| AUUGUUGAAGCUAACCCACUCCUAGAAGCAUUUGGAAAUGCAAAGACUGUUCGCAACAAUAAUAGCAGUCGAUUUGGAAAAUUUGUAGAAAUUCAUUUCAAUGAAAAGAGUUCGGUUGUU | 0.254 ratio |
| CACUCGAGGGCUGCCGUUUUCUGUUUCUCCCUGGGCUGCAGACAGCUAGAAGAUUUUAUCUAGCUUAUACAAGGCUGCUGGUGUUCCCUCUUUUUUUCCACGAGGGUGUUUUUGGCUGCA | 0.406 ratio |
| UACUACUAUGAUGGUGAUAUUGGCAAUUAUUAUUAUGGCCAGGGUCAUCCCAUGAAGCCUCAUAGAAUCCGCAUGACUCAUAACUUGCUGCUAAAUUAUGGUUUAUACCGAAAAAUGGAA | 0.208 ratio |
| GACUUUGGGACUGGUCCUCGUAAUGCAGCCUUCUAUAGCCCUCAUGGACAUAUAUUAGUAUUAGCUGGAUUUGGAAAUCUUCGAGGACAAAUGGAAGUAUGGGAUGUUAAAAACUACAAG | 0.972 ratio |

Study 2
Target: Ras GTPase-activating protein-binding protein 1, full length (G3BP1, Homo sapiens, UniProt Q13283)
Chain of UniProt Q13283 (whole entry, looked up): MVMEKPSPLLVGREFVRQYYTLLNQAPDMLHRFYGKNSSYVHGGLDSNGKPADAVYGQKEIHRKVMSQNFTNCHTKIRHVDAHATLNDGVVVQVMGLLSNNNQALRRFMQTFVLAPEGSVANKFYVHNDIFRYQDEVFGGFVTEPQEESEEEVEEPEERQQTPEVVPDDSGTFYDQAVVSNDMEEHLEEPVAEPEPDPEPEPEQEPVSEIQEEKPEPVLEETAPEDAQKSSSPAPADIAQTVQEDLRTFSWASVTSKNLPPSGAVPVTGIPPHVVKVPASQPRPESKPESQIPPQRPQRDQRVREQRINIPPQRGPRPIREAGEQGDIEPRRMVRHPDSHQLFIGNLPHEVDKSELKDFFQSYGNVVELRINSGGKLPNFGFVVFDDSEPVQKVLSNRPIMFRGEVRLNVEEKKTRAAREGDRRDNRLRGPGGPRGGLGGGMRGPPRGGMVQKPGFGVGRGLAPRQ
Method: RNA Bind-n-Seq
Form: RNA
Sample: in vitro
Concentration: 200 nM
Notes: whole 134-nt RNA, ends assumed
Together with: 150 mM KCl
Baseline: input library
Direction: higher = stronger binding
Constant ends, left off below: GGGAGUUCUACAGUCCGACGAUC … UGGAAUUCUCGGGUGUCAAGG
| Strand | log2 enrichment |
| --- | --- |
| UCCUGUGCUACACAUCGUAUGUACCGAAUCAAACCCCCCCAAAUUUAAACCCCCCCAAAAAAGUAUUAUGUUACGCCGUUCGGAUCUGCA | 1.37 |
| UCCUCAAGUCCUGUGCUACACAUCGUAUGUACCGAAUCGGAGGAGGUUUGGAAAGUAUUAUGUUACGCCGUUCGGAUCUGCACUUCCAGC | -0.816 |
| UGGCCCUGGUGGCAUGCGGGGAGGAAGAGGUGGCCUCAUGGAUCGUGGUGGUCCUGGUGGAAUGUUCAGAGGUGGCCGUGGUGGAGACAG | 0.0677 |
| AAGUCCUGUGCUACACAUCGUAUGUACCGAAUCGGAAAAAAAGGUGGUUUUUUUGGAAAGUAUUAUGUUACGCCGUUCGGAUCUGCACUU | -1.43 |
| ACCAUGCAGAAAGGCAUCUUUGGGAAGUGGGGCAAGGGGGGGAUAGGGAGGGGGGUAACACUUUGGGAACAGGUGGUCCCAGGUCGUUUC | 1.42 |
| CACAGACAACACGCACCCACACAGACACAGAGAGAAGGGGUUGGGAUGGGGACAGGGUGCACAGCAGGGCGGGGUAGGACCCCAGCCCCU | 1.74 |
| CAAGUCCUGUGCUACACAUCGUAUGUACCGAAUCGGAAAAAGGUGGAAAAAAAGGAAAGUAUUAUGUUACGCCGUUCGGAUCUGCACUUC | -1.21 |
| AGUCCUGUGCUACACAUCGUAUGUACCGAAUCGGGAAAGGGAAAAAGGGUUUUUGGGAAAGUAUUAUGUUACGCCGUUCGGAUCUGCACU | -0.234 |
| CCUGUGCUACACAUCGUAUGUACCGAAUCGGGGAAAGGGGUUUUUGGGGUUUUUUUGGGGAAAGUAUUAUGUUACGCCGUUCGGAUCUGC | 0.19 |
| CAAGUCCUGUGCUACACAUCGUAUGUACCGAAUCGGUUUUUGGUUUUUGGAAAGGAAAGUAUUAUGUUACGCCGUUCGGAUCUGCACUUC | -1.11 |
| CUGUGCUACACAUCGUAUGUACCGAAUCGGGGAAAAAAAGGGGAAAAAAAGGAAAAAAAGGGAAAGUAUUAUGUUACGCCGUUCGGAUCU | -0.604 |
| UCAAGUCCUGUGCUACACAUCGUAUGUACCGAAUCGGGGCCCGGCCCGGCCCGGAAAGUAUUAUGUUACGCCGUUCGGAUCUGCACUUCC | -0.584 |
| AAGUCCUGUGCUACACAUCGUAUGUACCGAAUCGGGGAAAAGGGAAAAGGAAAAGGAAAGUAUUAUGUUACGCCGUUCGGAUCUGCACUU | -0.723 |
| UCCUGUGCUACACAUCGUAUGUACCGAAUCAAAUUUUUUUAAAUUUAAAUUUUUUUAAAAAAGUAUUAUGUUACGCCGUUCGGAUCUGCA | -0.652 |

Study 3
Target: RNA binding protein fox-1 homolog 2, RRM domain, GST-SBP tag (RBFOX2, Homo sapiens, UniProt O43251-10, residues 100-194)
Method: RNA Bind-n-Seq
Form: RNA
Sample: in vitro
Concentration: 365 nM
Notes: natural RNA segment, single round, ends assumed
Baseline: no-protein control
Direction: higher = stronger binding
Constant ends, left off below: GGGAGUUCUACAGUCCGACGAUC … UGGAAUUCUCGGGUGCCAA
Construct (chain): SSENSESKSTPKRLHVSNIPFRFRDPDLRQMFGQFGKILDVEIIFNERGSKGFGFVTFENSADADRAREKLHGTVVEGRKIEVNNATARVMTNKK
| Strand | RBNS enrichment (R) |
| --- | --- |
| ACUCCUGAAAUCAUAUAGAAAGGCUGGGGUGGGCCCUGUCAUUCGUGGUUGAUUUCAAUACACUCAAGUGCCAUUCAUCCUUUAAGAAAAACAUCUGGAUAUCAAGGUGG | 0.367 |
| AUCAUUACCCUGAGCGAGCUGGAAGGGUGGUCACCCUGCACCUAGCCAGCCAUGCAGGCUCCAUCAGGCACCGUGUCCCCAGGGGUGGGCAUGAACCAGUGCGCCACAUG | 0.457 |
| UUUAACUGGGGACCAUCUGUGAAAUUAAUUUUCCAUCCAGACAGCUGCUGUGAGCAAAUGAACAUAAAUGCUCGCUGGAAAUUUACUAACCAGUUUUUAUAUUGACCUGC | 0.373 |
| CAGUGCCUGAGACUUUCCUGCCACGCUGCAGACAGUGGCAGUUGGUAGCAUGGGUGGUUCAUCAGAGCAGUGGUGGCUCUUGCCUGGCAGUCAGCCCCUUCAAGUCUGGA | 1.04 |
| ACCCAGAAAUGGAGCCCGGAGCCCAAUUCCAGAGAGGAAGGGAAAGAAGAGACGAUGCCUGGACAAUGUCUUAUACAUAGGGAACAGAGAGGGAAUCAGAGGUGGCUUAG | 0.49 |
| AGUUUUAUGAGACGGGUGUAAUAAUAUCUCCACCUGUGAUUUGGGGGUGGGACUCUUAUUUUGGGUAGCCAUUUAUUGACUUCACCUUUUUGCCAAGGACGUUUGUCUCA | 0.299 |
| CGCCUCCGCCUCAGCGCACGCCUCUGCCUCCUUCCUUCUCCAGCCUCGGCCCUCCCUUCCUUCCUCUGCCUGCUGGGCAGGGACCCACAGUGGCCAGCGGCCUUGGGGAG | 0.872 |
| UCUUAGGGCUCACACUCGCCUUUUGGCGCGUGGUGGGUUUUUGGUAGUGCAGAAAGAAUCCAGGGAUGGGAGGGGAAGGGACGGAUGGGUGCUCAAUUGCUGCUCACGUC | 0.528 |
| UCUUCUACCCUCCCCCUCUUCUUUCCCAUUUUAAAAAAGAAAAGAAGGAAAAAGAAAAAAGGGGCAAGGAGCCCCGCGGCGGCCUGGGCAGCGCCUGUGCAGACCUCCCU | 0.244 |
| UUGGUAGCAAUAUCUUUGAAUAUGAUGAAUAAAAGUGACUGUGAGUGCAAAUAGAAUUAGCAGUAAGAAGCUACUCUAGCUAAUUUGCCAUUUUACUUAAAUGGAAAAUG | 0.367 |
| CACCUCCUGGCUGGUUUACCUGCUGCUGCCCAUUUUCUCUGGGUACUGCUGGCCAGAGGACUUUAGCCUACCCCUGAAGAGCCUGUCCAUGUCAUUUUCCUACUGCCAUA | 0.559 |
| AGGUGGGAGGGAGGAACACCGGUGCCUCGGUCACUCUGGGGGCAGUUUAGAUGCUGUGAAAUUAAACCUGUUCUAAGUGUACUUGUUUGAAUUAAUUGUAUUGUAAUAUU | 0.657 |

Study 4
Target: Protein max, full length (MAX, Homo sapiens, UniProt P61244-2, residues 1-151)
Method: protein-binding microarray
Form: double-stranded DNA, one strand shown
Sample: in vitro
Concentration: not given
Notes: k-mer, scored over probes, only values ≥0.25
Direction: higher = stronger binding
| Strand | E-score |
| --- | --- |
| ACATGATC | 0.359 |
| CACGTTAC | 0.424 |
| AGACCATG | 0.384 |
| ATGACATG | 0.336 |
| CACGGTGG | 0.301 |
| CGTGTTTC | 0.362 |
| ATAACATG | 0.271 |
| ACACACGA | 0.29 |
| ACCGCATG | 0.464 |
| GCCACGCA | 0.355 |
| AATCATGT | 0.389 |
| AGATCATG | 0.268 |
| CACATGAC | 0.455 |
| CACGATAC | 0.26 |
| ATGCAGCC | 0.271 |
| CGCGCCAC | 0.259 |
